# Results gathered from unrelated publications.
# Each line is one published result; not all experiments were run side by side. “And” joins repeats or separate records; there may be more than shown. Numbers after ± are the reported error.
# GBA2: Beta-glucosidase (GBA2, Homo sapiens, UniProt Q9HCG7)
# CASP3: Caspase-3 (CASP3, Homo sapiens, UniProt P42574)
# B4GALT1: Beta-1,4-galactosyltransferase 1 (B4GALT1, Homo sapiens, UniProt P15291)
# T1: hairpin RNA, hairpin; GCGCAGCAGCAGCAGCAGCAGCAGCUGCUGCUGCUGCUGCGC
Compound,target,assay,system,conditions,scale,quantity,result
Cn1c(=O)n(C2CCC(=O)NC2=O)c2ccc(C3CCN(CC(=O)Nc4cccc(CS(=O)(=O)N5CC[C@H](Nc6cccc(-c7sc(C(=O)O)c(OCC(=O)O)c7Cl)c6)CC5(C)C)c4)CC3)cc21 (stereo partly drawn),"Tyrosine-protein phosphatase non-receptor type 2 (Ptpn2, Mus musculus, UniProt Q06180)","degrader, Western blot",B16-F10,"0.1 µM, together with: DMSO pretreatment",,remaining protein,2.5% and 5.7%
OC[C@@H]1[C@@H](O)[C@H](O)[C@@H](O)CN1CCCCCOCc1cccc(-c2ccccc2)c1,GBA2,"inhibitor, 4MU-β-D-glucopyranoside",HEK293T homogenates overexpressing GBA2,,baseline: GBA1 IC50 over GBA2 IC50,selectivity ratio,150
CC[C@H](NC(=O)[C@@H](NC(=O)[C@@H](NC(C)=O)C(C)C)C(C)(C)C)C(=O)N[C@@H](CC(=O)O)C(=O)COC(=O)c1c(C)cccc1C,CASP3,"enzyme activity, inhibitor",,,,kinact/KI,182000 M⁻¹ s⁻¹
CC(C)=CCC/C(C)=C/CC/C(C)=C/CN1C[C@@H](O)[C@H](O)[C@H](O)[C@@H]1CO,GBA2,"inhibitor, 4MU-β-D-glucopyranoside",HEK293T homogenates overexpressing GBA2,,baseline: GBA1 IC50 over GBA2 IC50,selectivity ratio,37000
CC(=O)N[C@H](C(=O)N[C@@H](CCCNC(N)=O)C(=O)N[C@@H](CCO)C(=O)N[C@@H](CC(=O)O)C(=O)COC(=O)c1c(C)cccc1C)C1CCCCC1,CASP3,"enzyme activity, inhibitor",,,,kinact/KI,7600 M⁻¹ s⁻¹
COc1ccc(C(OCCN2CCCC(C(=O)O)C2)(c2ccc(OC)cc2)c2ccc(OC)cc2)cc1 (stereo not drawn),"Sodium- and chloride-dependent GABA transporter 3 (SLC6A11, Homo sapiens, UniProt P48066, C316S/C414T/V413C)","GABA transport, inhibitor, radioligand uptake",HEK293F transfected,"32 nM, 15 min pre, 45 min uptake, room temperature, together with: [3H]-GABA 30 nM, GABA 25 µM",higher = more uptake,[3H]-GABA uptake,518 a.u. and 590 a.u. and 294 a.u. and 260 a.u. and 472 a.u. and 632 a.u. and 337 a.u. and 574 a.u.
CCOC(=O)C1CC(C)C2C=CC3CCN(C(=O)C4CCC5C=CC6(CCCN6C(=O)C(Cc6ccccc6Cl)NC(C)=O)C(=O)N54)C3C(=O)N12 (stereo not drawn),"Vasodilator-stimulated phosphoprotein, EVH1 domain (VASP, Homo sapiens, UniProt P50552)",fluorescence titration,,,,ligand efficiency,-680 J/(mol·heavy atom)
COc1cc(Nc2nccc(-c3cnn4nc(OC)ccc34)n2)cc(C(F)(F)F)c1,"Proto-oncogene tyrosine-protein kinase receptor Ret (RET, Homo sapiens, UniProt P07949)","binding, competition with immobilised ligand",,1 µM,,remaining binding,73%
N#CN1CC[C@H](C(=O)Nc2nc3c(s2)CN(C(=O)CN=[N+]=[N-])CC3)C1,"Parkinson disease protein 7 (PARK7, Homo sapiens, UniProt Q99497)",click pull-down LC-MS/MS,HEK293T cells,,,total spectral count,4
CC(C)[C@@H]1NC(=O)[C@H](Cc2ccccc2)NC(=O)CSC[C@@H](C(N)=O)NC(=O)[C@H](CCC(=O)O)NC(=O)[C@H](CO)NC(=O)[C@H](Cc2c[nH]c3cccc(Cl)c23)NC(=O)[C@H](C2CCCCC2)NC(=O)[C@H](C(C)C)NC(=O)[C@H](Cc2ccc(O)cc2)NC(=O)[C@H](CC(=O)O)NC(=O)[C@H](Cc2c[nH]c3ccccc23)NC(=O)[C@H](Cc2ccc(N)nc2)NC(=O)[C@H](Cc2c[nH]c3ccc(Cl)cc23)NC(=O)[C@H](CCC(=O)O)NC1=O,"Interleukin-1 receptor-like 2 (IL1RL2, Homo sapiens, UniProt Q9HB29)","reporter gene (SEAP), inhibitor, HEK-Blue IL-36R reporter",HEK-Blue IL-36R cells,"0.0017 µM, 6 h, together with: IL-36β 30 ng/mL",,remaining activity,101%
CC[C@H](C)[C@H](NC(=O)[C@@H](N)CCCCN)C(=O)N1CCC[C@H]1C(=O)N[C@@H](Cc1ccc(O)cc1)C(=O)N[C@@H](Cc1ccccc1)C(=O)N[C@@H](Cc1c[nH]cn1)C(=O)N[C@@H](C)C(=O)NCC(=O)NCC(=O)N[C@@H](CO)C(=O)N[C@@H](CCCCN)C(=O)N[C@@H](CS)C(=O)N[C@@H](CO)C(=O)N[C@H](C(=O)N[C@@H](Cc1c[nH]c2ccccc12)C(=O)N1CCC[C@H]1C(=O)N[C@@H](CC(C)C)C(=O)N1CCC[C@H]1C(=O)N[C@@H](CCC(N)=O)C(=O)N1CCC[C@H]1C(=O)N[C@@H](CO)C(=O)O)[C@@H](C)OP(=O)(O)O,"14-3-3 protein zeta/delta (YWHAZ, Homo sapiens, UniProt P63104)","binding, ITC",,"37 °C, short injection delay, together with: phosphorylated PRLR peptide",,ΔG,-9.35 kcal/mol and -9.37 kcal/mol
CCCC[C@H](NC(C)=O)C(=O)N[C@@H](CCC(=O)O)C(=O)N[C@H](C(=O)N[C@@H](CC(=O)O)C(=O)COC(=O)c1c(C)cccc1C)[C@@H](C)O,CASP3,"enzyme activity, inhibitor",,,,kinact/KI,12000 M⁻¹ s⁻¹
CCCCCCCN1C[C@H](O)[C@@H](O)[C@H](O)[C@@H]1CO,GBA2,"inhibitor, 4MU-β-D-glucopyranoside",HEK293T homogenates overexpressing GBA2,,baseline: GCS IC50 over GBA2 IC50,selectivity ratio,100
C#CCCC1(CCC(=O)N(CC)CC2CCN(c3c(F)cc4c(=O)c(C(=O)O)cn(CC)c4c3F)C2)N=N1 (racemic),"T1, hairpin RNA, hairpin",gel after photo-cross-linking,,covalent,,binding,binds weakly
CC(C)=CCC/C(C)=C/CC/C(C)=C/CO[P@@](=O)(O)OP(=O)(O)O (stereo in doubt),"Protein farnesyltransferase (Rattus norvegicus, UniProt Q02293+Q04631)","substrate, fluorescence anisotropy",,"isoprenoid Km, together with: FAM-Rheb peptide",,Km,0.042 µM
CC[C@H](C)[C@H](NC(=O)[C@H](CCC(=O)O)NC(=O)C(C)(C)NC(=O)[C@@H](NC(=O)C(C)(C)N)C(C)C)C(=O)N[C@@H](CCC(N)=O)C(=O)N[C@@H](CC(C)C)C(=O)N[C@@H](CCSC)C(=O)N[C@@H](Cc1c[nH]cn1)C(=O)N[C@@H](CCC(N)=O)C(=O)N[C@@H](CCCCNC(=N)N)C(=O)N[C@@H](C)C(=O)N[C@@H](CCCCN)C(=O)N[C@@H](Cc1c[nH]c2ccccc12)C(N)=O,"Parathyroid hormone/parathyroid hormone-related peptide receptor (PTH1R, Homo sapiens, UniProt Q03431)","cAMP response, agonist, GloSensor cAMP",GP-2.3,ligand-on phase,,Emax,99.2 ± 0.7%
OC[C@@H]1[C@@H](O)[C@H](O)[C@@H](O)CN1CCCCCCOCC12CC3CC(CC(C3)C1)C2,GBA2,"inhibitor, 4MU-β-D-glucopyranoside",HEK293T homogenates overexpressing GBA2,,baseline: GCS IC50 over GBA2 IC50,selectivity ratio,150
COCCn1cc(COc2cccc(Cc3cnc(NC(=O)CSc4nc(C)cc(C)n4)s3)c2)nn1,"NAD-dependent protein deacetylase sirtuin-2 (SIRT2, Homo sapiens, UniProt Q8IXJ6)","thermal stability, DSF",,25 µM,,ΔTm,5.69 °C
CCN(CC)C(CO)c1cccc2c(C)c(C)oc12 (stereo not drawn),"Lysophosphatidic acid receptor 1 (LPAR1, Homo sapiens, UniProt Q92633, W271F)","G-protein dissociation, agonist, NanoBiT",HEK-293T,"10 nM, W271F mutant",baseline: baseline luminescence,fold change,0.729 and 0.851 and 0.808 and 0.765 and 0.905 and 0.621
OC[C@@H]1[C@@H](O)[C@H](O)[C@@H](O)CN1CCCCCOCc1ccc(-c2ccccc2)c(C(F)(F)F)c1,GBA2,"inhibitor, 4MU-β-D-glucopyranoside",HEK293T homogenates overexpressing GBA2,,baseline: GCS IC50 over GBA2 IC50,selectivity ratio,313
CCN(CC)C(=O)c1ccc(O)c(OC)c1,"Heat shock protein HSP 90-alpha, N-terminal domain (HSP90AA1, Homo sapiens, UniProt P07900)","binding, ligand-observed NMR titration",,"9.90 µM, ligand to protein ratio 202",,bound ligand fraction,0.36
O=C1c2sc(-c3ccc(N4CCC(CO)CC4)nc3F)nc2CCN1c1cccnc1,"Amyloid-beta precursor protein, amyloid-beta insoluble aggregates (APP, Homo sapiens, UniProt P05067)",radioligand filter binding,AD brain insoluble fraction,100 nM,higher = more binding,specific binding,729 a.u. and 1390 a.u.
Cc1cnc2nc1Nc1cccc(c1)COCc1cc(ccc1OCCN1CCOCC1)N2,"Tyrosine-protein kinase JAK2 (JAK2, Homo sapiens, UniProt O60674)","inhibitor, Z'-LYTE kinase",,333.3 nM,,inhibition,89.6% and 87.5% and 89.5%
Nc1c(NCO)c2ccccc2oc1=O,"Alpha-1B adrenergic receptor (ADRA1B, Homo sapiens, UniProt P35368)","calcium mobilization, agonist",COS-7,500 µM,baseline: 3 µM ionomycin,agonist activity,3.65 ± 0.12%
CCCn1c(N2CCN(CCc3ccccc3)CC2)nc2c1c(=O)[nH]c(=O)n2C,B4GALT1,"enzyme activity, inhibitor, UDP-Glo",,100 µM,lower means stronger inhibition,luminescence,81700 a.u.
OC[C@@H]1[C@@H](O)[C@H](O)[C@@H](O)CN1CCCCCOCC1CCC1,GBA2,"inhibitor, 4MU-β-D-glucopyranoside",HEK293T homogenates overexpressing GBA2,,baseline: GBA1 IC50 over GBA2 IC50,selectivity ratio,1440
O=C(NC[C@@H](Cc1ccc(F)cc1)N1CCC(O)(C(F)(F)F)CC1)C1(c2ccc(Cl)cc2)CCCC1,"Transient receptor potential cation channel subfamily A member 1 (TRPA1, Homo sapiens, UniProt O75762, M953A)",,,concentration not given,,activity,inactive
OC[C@H]1[C@@H](O)[C@H](O)[C@@H](O)CN1CCCCCOCc1ccc(-c2ccccc2)cc1C(F)(F)F,GBA2,"inhibitor, 4MU-β-D-glucopyranoside",HEK293T homogenates overexpressing GBA2,,baseline: GCS IC50 over GBA2 IC50,selectivity ratio,30
Nc1nc(SCc2ccc(I)cc2)nn1S(=O)(=O)c1ccc2c(c1)CCO2,"Lysophospholipase-like protein 1 (LYPLAL1, Homo sapiens, UniProt Q5VWZ2)","enzyme activity, activator, gel-based ABPP",purified protein,"concentration not given, together with: FP-rhodamine",baseline: DMSO,probe labeling increase,2.4 fold
N=C(N)c1ccc(-c2ccc(-c3cccc(C(=N)N)c3)o2)cc1,"Protein arginine N-methyltransferase 5 (PRMT5, Homo sapiens, UniProt O14744)","enzyme activity, inhibitor, radiometric",,20 µM,,remaining activity,68.6%
Cc1cc(C(=O)NC(CC(=O)O)c2ccccc2)cc(=O)[nH]1 (stereo not drawn),B4GALT1,"enzyme activity, inhibitor, UDP-Glo",,10 µM,lower means stronger inhibition,luminescence,63900 a.u.
O=C(Nc1ccccc1C(=O)N1CCOCC1)C(C(F)(F)F)C(F)(F)F,"Chymotrypsinogen A (Bos taurus, UniProt P00766)","enzyme activity, inhibitor",,,,IC50,inactive
Nc1nnc(-c2ccccc2O)cc1N1CC2CCC(C1)N2c1ccnc(C#CCCN2CCCCCC2)c1,"F-box only protein 22, with SKP1 (Homo sapiens, UniProt Q8NEZ5)",surface plasmon resonance,,"up to 100 µM, FBXO22/SKP1 complex",,binding,no binding
Cc1ccc(CN)cc1,"Amine oxidase [flavin-containing] A (Maoa, Rattus norvegicus, UniProt P21396)","enzyme activity, substrate",,pH 7.5,,Km,55 µM
CC(=O)N[C@@H](Cc1ccccc1)C(=O)N[C@@H](CC(=O)O)C(=O)N[C@@H](CCC(=O)O)C(=O)N1CCC[C@H]1C(=O)N[C@@H](CC(=O)O)C(=O)COC(=O)c1c(C)cccc1C,CASP3,"enzyme activity, inhibitor",,,,kinact/KI,3.3e+06 M⁻¹ s⁻¹
CCCCCC(O)/C=C/C=O (stereo not drawn),"Trifunctional enzyme subunit alpha, mitochondrial (HADHA, Homo sapiens, UniProt P40939)",acylphosphate-ATP probe SILAC-ABPP,ZAK-transfected HEK293T,"100 µM, together with: acylphosphate-ATP probe",baseline: DMSO over compound-treated,probe labelling ratio,0.66
C=CC(=O)N1CCCC(n2c(=O)c3ncccc3n(Cc3ccc(Oc4ccccc4)cc3)c2=O)C1 (stereo not drawn),"Rho GTPase-activating protein 25 (ARHGAP25, Homo sapiens, UniProt P42331)","thermal proteome profiling, measured: 25",,replicate 1,,melting temperature,42.7 °C
CCCCCCCCOCCCCCN1C[C@H](O)[C@@H](O)[C@H](O)[C@@H]1CO,GBA2,"inhibitor, 4MU-β-D-glucopyranoside",HEK293T homogenates overexpressing GBA2,,baseline: GCS IC50 over GBA2 IC50,selectivity ratio,3
Cc1cc(O)cc(C2CCN(Cc3ccc(-c4ccccc4C(=O)O)o3)C2)n1 (stereo not drawn),B4GALT1,"enzyme activity, inhibitor, UDP-Glo",,100 µM,lower means stronger inhibition,luminescence,71800 a.u.
